Measurements gathered from unrelated publications.
Every numbered part comes from another study and shows a few of its results, in no order. Positions count from the first letter of the parent shown.

Study 1 — method: protein-binding microarray; molecule type: double-stranded DNA, one strand shown; medium: in vitro; tested at: not given; direction: higher = stronger binding
Target: Hepatocyte nuclear factor 3-beta, forkhead domain (FOXA2, Homo sapiens, UniProt Q9Y261, residues 142-269)
Notes: k-mer, scored over probes, only values ≥0.25
Residues (chain): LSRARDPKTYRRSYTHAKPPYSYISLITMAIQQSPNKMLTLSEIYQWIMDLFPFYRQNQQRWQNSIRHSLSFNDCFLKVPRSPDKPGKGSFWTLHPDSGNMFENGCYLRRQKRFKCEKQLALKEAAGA
`CAAACACC` gave an E-score of 0.291.
`AATATATC` has an E-score of 0.339.
With `ATCATTAG` the E-score was 0.3.
For `ATTAGATG`, the E-score was 0.299.
`GTATACAA` has an E-score of 0.35.
`ATTATCTA` gave an E-score of 0.329.
The E-score of `ATTATGAC` is reported as 0.28.

Study 2 — method: DHFR PCA, deep sequencing; medium: yeast; with: (+)-ABA 1.4 µM; reference: wild-type fitted maximum; direction: higher = stronger binding
Target: ABI1, truncated, D143A, DHFR fusion (Arabidopsis thaliana)
Notes: methotrexate growth selection, single substitutions
Parent: PYL1, truncated, DHFR fusion (Arabidopsis thaliana); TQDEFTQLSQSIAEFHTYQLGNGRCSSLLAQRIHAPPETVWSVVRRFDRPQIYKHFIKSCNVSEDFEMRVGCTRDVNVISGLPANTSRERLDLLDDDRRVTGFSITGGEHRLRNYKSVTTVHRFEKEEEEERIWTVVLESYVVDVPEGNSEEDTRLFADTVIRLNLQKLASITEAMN; partner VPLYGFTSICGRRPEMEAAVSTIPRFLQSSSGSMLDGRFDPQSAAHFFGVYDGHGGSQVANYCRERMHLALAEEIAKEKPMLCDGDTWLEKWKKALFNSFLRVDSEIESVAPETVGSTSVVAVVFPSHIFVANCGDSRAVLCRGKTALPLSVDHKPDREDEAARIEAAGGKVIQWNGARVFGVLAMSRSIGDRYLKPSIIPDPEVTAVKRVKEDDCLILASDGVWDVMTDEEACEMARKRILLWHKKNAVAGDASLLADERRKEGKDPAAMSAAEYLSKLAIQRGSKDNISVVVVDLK
`I105M`: “relative binding score” 7.42%.
`R24D`: “relative binding score” 6.78%.
`R99W` — result for “relative binding score”: 82.6%.
For `S87Y`, “relative binding score” read 35.1%.
`K54R`: “relative binding score” 7.98%.
Under “relative binding score”, `S27G` is recorded as 76.1%.
`L82Q`: “relative binding score” 19.2%.

Study 3 — target: CCND2, cyclin fold, Cln2 fusion (human); method: yeast growth competition, sequencing; medium: yeast; notes: strong parent motif; reference: not given; direction: higher = stronger binding
Parent: INSM1 docking peptide (human); PKAIRKLHFEDEV; partner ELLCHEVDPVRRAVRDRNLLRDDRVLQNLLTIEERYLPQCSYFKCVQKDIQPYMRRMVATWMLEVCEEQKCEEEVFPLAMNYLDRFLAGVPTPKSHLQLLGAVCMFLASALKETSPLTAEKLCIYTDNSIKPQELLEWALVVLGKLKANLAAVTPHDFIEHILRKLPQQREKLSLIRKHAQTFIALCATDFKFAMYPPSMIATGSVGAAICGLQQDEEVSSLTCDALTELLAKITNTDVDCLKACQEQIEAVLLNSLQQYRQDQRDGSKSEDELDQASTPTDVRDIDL
`K2Q` — result for “normalised enrichment score”: 1.68.
Under “normalised enrichment score”, `E10T` is recorded as 1.76.
For `I4P`, “normalised enrichment score” read 0.479.
`E10V` — result for “normalised enrichment score”: 1.26.
For `K2G`, “normalised enrichment score” read 2.99.
`L7M`: “normalised enrichment score” 0.546.
`R5N` — result for “normalised enrichment score”: 0.0177.
For `A3I`, “normalised enrichment score” read 0.349.

Mixed results
For `PhoQ, residues 284 288 289 292 302 303 SCEHLI`, the fold induction was 17.8 (PhoP, residues 12 14 15 18 19 GHCSL (Escherichia coli, UniProt P23836); Sort-seq, item: YFP reporter; E. coli; PhoQ-PhoP variant library, with: 10 µM Mg2+; reference: high Mg2+ state, higher = stronger signaling).

Excerpt of the above (study 2):
`R99W` — result for “relative binding score”: 82.6%.
For `S87Y`, “relative binding score” read 35.1%.
`K54R`: “relative binding score” 7.98%.
